Measured values of several laboratories.
Lines come from different studies, so protocols differ. ± marks the error that the study gave.

For CCCC[C@H](NC(=O)CNC(=O)CNC(=O)CN1CCN(CC(=O)O)CCN(CC(=O)O)CCN(CC(=O)O)CC1)C(=O)N[C@H]1CC(=O)NCCCC[C@@H](C(N)=O)NC(=O)[C@H](Cc2c[nH]c3ccccc23)NC(=O)[C@H](CCCNC(=N)N)NC(=O)[C@@H](Cc2ccccc2)NC(=O)[C@H](Cc2c[nH]cn2)NC1=O [lead-203 labelled], the tissue uptake was 0.72 ± 0.12 %ID/g (C57 mouse, blood; intravenous, 0.056 MBq, 2 h).
CC(C)[C@H](NC(=O)[C@@H]1CCCN1C(=O)[C@H](CCCNC(=N)N)NC(=O)[C@H](CS)NC(=O)[C@H](Cc1c[nH]c2ccccc12)NC(=O)[C@H](CCCNC(=N)N)NC(=O)[C@@H](Cc1ccccc1)NC(=O)[C@H](Cc1c[nH]cn1)NC(=O)[C@H](CCC(=O)O)NC(=O)[C@H](CS)NC(=O)[C@H](CS)NC(=O)CNC(=O)[C@@H]1CC(=O)N[C@@H](CCCNC(=N)N)C(=O)NCC(=O)N[C@@H](CC(=O)O)C(=O)N[C@H](Cc2ccc(O)cc2)C(=O)N1)C(N)=O [technetium-99m labelled] gave a tissue uptake of 1.13 ± 0.44 %ID/g (C57 mouse, female, B16/F1 melanoma, lung; intravenous, 0.037 MBq, 4 h).
For CCCC[C@H](NC(=O)CNC(=O)CNC(=O)CN1CCN(CC(=O)O)CCN(CC(=O)O)CC1)C(=O)N[C@H]1CC(=O)NCCCC[C@@H](C(N)=O)NC(=O)[C@H](Cc2c[nH]c3ccccc23)NC(=O)[C@H](CCCNC(=N)N)NC(=O)[C@@H](Cc2ccccc2)NC(=O)[C@H](Cc2c[nH]cn2)NC1=O [copper-64 labelled], the tissue uptake was 1.41 ± 0.7 %ID (C57 mouse female B16/F1 melanoma, intestines; intravenous, 0.037 MBq, 2 h).
CN1C(=O)[C@@H](Cc2ccc(O)c(I)c2)NC(=O)CNC(=O)[C@H](Cc2ccc3ccccc3c2)NC(=O)[C@H](CCCNC(=N)N)NC(=O)[C@H]1CCCNC(=O)c1ccc(CNC(=O)CN2CCN(CC(=O)O)CCN(CC(=O)O)CCN(CC(=O)O)CC2)cc1 [lutetium-177 labelled] has a tissue uptake of 0.9 ± 0.5 %ID/g (measured: 177Lu radioactivity; female CB-17 SCID mice, Daudi xenograft, skin; intravenous, 0.16 nmol per mouse, 1 h).
With O=C(O)C1CN(Cc2ccc(-c3noc(-c4ccc(OCC[18F])c(C(F)(F)F)c4)n3)cc2)C1 the tissue uptake was 0.151 ± 0.01 %ID/g (Sprague-Dawley rat, male, normal, thymus; iv, 30 min).
CCCC[C@@H]1NC(=O)[C@@H](NC(=O)[C@H](CCC(=O)O)NC(=O)CNC(=O)CN2CCN(CC(=O)O)CCN(CC(=O)O)CCN(CC(=O)O)CC2)CCCCNC(=O)C[C@@H](C(N)=O)NC(=O)[C@H](C(C)C)NC(=O)[C@@H]2CCCN2C(=O)[C@H](CCCNC(=N)N)NC(=O)CNC(=O)[C@H](Cc2c[nH]c3ccccc23)NC(=O)[C@H](CCCNC(=N)N)NC(=O)[C@@H](Cc2ccccc2)NC(=O)[C@H](Cc2c[nH]cn2)NC(=O)[C@H](CCC(=O)O)NC1=O [gallium-67 labelled] gave a tissue uptake of 0.22 ± 0.07 %ID/g (C57 mice with B16/F1 melanoma, spleen; intravenous, 0.037 MBq, 24 h).
CCCC[C@H](NC(=O)CNC(=O)CNC(=O)CN1CCN(CC(=O)O)CCN(CC(=O)O)CC1)C(=O)N[C@H]1CC(=O)NCCCC[C@@H](C(N)=O)NC(=O)[C@H](Cc2c[nH]c3ccccc23)NC(=O)[C@H](CCCNC(=N)N)NC(=O)[C@@H](Cc2ccccc2)NC(=O)[C@H](Cc2c[nH]cn2)NC1=O [gallium-67 labelled] has a tissue uptake of 2.74 ± 0.64 %ID/g (female C57 mice, B16/F1 melanoma, kidneys; intravenous, 0.037 MBq, 24 h).
The tissue uptake of CN(C)c1ccc(-c2nc3ccc(OCCCCCN4CCN5CCN(CC4)CC(=O)[O][Al]([18F])[O]C(=O)C5)cc3s2)cc1 is reported as 1.12 ± 0.26 %ID/g (ICR mouse, lung; intravenous, 60 min).
With CC(C)[C@H](NC(=O)[C@@H]1CCCN1C(=O)[C@H](CCCNC(=N)N)NC(=O)[C@H](CS)NC(=O)[C@H](Cc1c[nH]c2ccccc12)NC(=O)[C@H](CCCNC(=N)N)NC(=O)[C@@H](Cc1ccccc1)NC(=O)[C@H](Cc1c[nH]cn1)NC(=O)[C@H](CCC(=O)O)NC(=O)[C@H](CS)NC(=O)[C@H](CS)NC(=O)[C@@H]1CC(=O)N[C@@H](CCCNC(=N)N)C(=O)NCC(=O)N[C@@H](CC(=O)O)C(=O)N[C@H](Cc2ccc(O)cc2)C(=O)N1)C(N)=O [technetium-99m labelled] the tissue uptake was 0.66 ± 0.31 %ID/g (C57 mouse, female, B16/F1 melanoma, spleen; intravenous, 0.037 MBq, 4 h).
O=C([O-])CN1CCN(CC(=O)[O-])CCN(CC(=O)NCCc2ccc3c(c2)C2C=CCC2C(c2cc4c(cc2Br)OCO4)N3)CCN(CC(=O)[O-])CC1.[111In+3] (stereo not drawn) has a tissue uptake of 3.87 ± 0.41 %ID/g (mouse, Hec50 endometrial tumour, liver; 2 h post injection).
OCc1cn(Cc2ccc(-c3noc(-c4ccc(OCC[18F])c(C(F)(F)F)c4)n3)cc2)nn1 has a tissue uptake of 0.51 ± 0.02 %ID/g (female Lewis rat, muscle; intravenous, 60 min).
The tissue uptake of CCCC[C@H](NC(=O)CNC(=O)CNC(=O)CN1CCN(CC(=O)O)CCN(CC(=O)O)CCN(CC(=O)O)CC1)C(=O)N[C@H]1CC(=O)NCCCC[C@@H](C(N)=O)NC(=O)[C@H](Cc2c[nH]c3ccccc23)NC(=O)[C@H](CCCNC(=N)N)NC(=O)[C@@H](Cc2ccccc2)NC(=O)[C@H](Cc2c[nH]cn2)NC1=O [copper-64 labelled] is reported as 1.43 ± 0.58 %ID/g (C57 mouse B16/F1 melanoma, spleen; 0.5 h).

Repeated from above:
The tissue uptake of CN(C)c1ccc(-c2nc3ccc(OCCCCCN4CCN5CCN(CC4)CC(=O)[O][Al]([18F])[O]C(=O)C5)cc3s2)cc1 is reported as 1.12 ± 0.26 %ID/g (ICR mouse, lung; intravenous, 60 min).
